Results of several laboratories.
Lines come from different studies, so protocols differ. “And” joins repeats or separate records; there may be more than shown.
Target: Activin receptor type-1 (ACVR1, Homo sapiens, UniProt Q04771)

Under “log2 LFQ intensity”, `N[C@H]1CC[C@H](Nc2nccc(-c3cccnc3Oc3ccc(NC(=O)NC4CC4)c4ccccc34)n2)CC1` is recorded as 25.4 and 25.6 and 25.3 (kinobead competition pulldown; HEK293/HCT116 lysate mixture; 10 µM, 1 h, 4 °C; lower = stronger competition).
With `COc1c(Cl)cccc1Nc1c(-c2ccncc2C#C[C@@]2(C)CCCN2C(=O)/C=C/CN(C)C)[nH]c2c1C(=O)NCC2` the remaining binding was 100% (cell-free assay, competition with immobilised ligand; 3 µM).
For `Cc1ccc(-c2c(/C=C(\C#N)C(=O)NC(C)C)n(CCCO)c3ncnc(N)c23)cc1`, the remaining binding was 47% (cell-free assay, competition with immobilised ligand; 1 µM).
`C=CC(=O)N1CCc2ccc(-n3c(=O)ccc4cnc5ccc(-c6cnn(C)c6)cc5c43)cc21` gave a remaining binding of 99% (KINOMEscan; 1 µM; baseline: DMSO control).
For `NC(=O)C[C@H]1CCc2sc3ncnc(O[C@H]4CC[C@H](N5CCOCC5)CC4)c3c21`, the inhibition was -1% (enzyme activity, inhibitor; 10 µM).
`COc1cc(Nc2nccc(-c3cnn4nc(OC)ccc34)n2)cc(C(F)(F)F)c1` has a remaining binding of 97% (binding, competition with immobilised ligand; 1 µM).
`CN1CC[C@@H](COc2cnc(C#N)cc2-c2ccn3nc(NC(=O)C4CC4)cc3c2)C1` has an inhibition of 7% (enzyme activity, inhibitor; 1 µM).
For `CN1CCN(Cc2ccc(-c3ccc(CO[C@H]4CCC[C@@H]4NC(=O)c4cc(-c5cnn(C)c5)cnc4N)cc3)cc2)CC1`, the inhibition was -5% (enzyme activity, inhibitor; 0.1 µM).
With `CNC1C[S+]2CC[S+]3CC[S+](C1)[Ru-4]321([N]=C=S)[n]2c3ccc(OC)cc3c3c4c(c5cc(F)c[n+]1c5c32)C(=O)NC4=O` (stereo not drawn) the remaining binding was 100% (KinomeScan; 0.1 µM; baseline: untreated).
For `COCC12C(=O)NC3C4(C(OC)CC1O)C1CC5(O)C(OC)C(O)C(OC(C)=O)(C1C5OC(=O)c1ccccc1)C3(O)C(OC)C24` (stereo not drawn), the remaining activity was 94% and 105% (kinase activity, inhibitor, ProQinase kinase profiling; 25 µM; baseline: control).
Under “activity vs control”, `CNC(=O)C[C@H](Cc1ccc(C#N)cc1)NC(=O)c1cc(-c2ccc(CN[C@H](C)c3ccc(C)cc3)o2)ccc1Cl` is recorded as 96% (enzyme activity, inhibitor; 1 µM).
For `C=CC(=O)N1CCCC(n2c(=O)c3ncccc3n(Cc3ccc(Oc4ccccc4)cc3)c2=O)C1` (stereo not drawn), the remaining binding was 87% (cell-free assay, competition with immobilised ligand; 1 µM).
With `Nc1ncc(-c2cc(-c3cnn(CC(F)(F)F)c3)ncc2F)nc1C(=O)NC1CNCC(F)C1` (stereo not drawn) the remaining activity was 109% (enzyme activity; 1 µM; baseline: DMSO control).
With `CNC(=O)C1CCN(c2cc(C)c(F)cc2NC(=O)c2ccc(-c3cc(O)ccc3C)c(C)c2)CC1` the remaining binding was 100% (binding, competition with immobilised ligand; 1 µM).
With `CCN1CCN(Cc2ccc(C(=O)Nc3ccc(C)c(NCc4cnc5[nH]ccc5c4OC)c3)cc2C(F)(F)F)CC1` the remaining binding was 100% (binding, competition with immobilised ligand; 1 µM).
`O=C(Cc1ccc(OCc2ccccc2)cc1)NC1(C(=O)O)CCN(C(=O)c2ccc(-c3cccc(Cl)c3)cc2)CC1` — result for “activity vs control”: 115% (enzyme activity, inhibitor; 10 µM).
`CC(C)=CC1OC(C)(C)C2C=C3C(=O)C(Cl)=CC(O)C3C3C(O)C4OC4C(=O)C132` (stereo not drawn) gave a remaining binding of 84% (cell-free assay, competition with immobilised ligand; 10 µM).
`Cc1cnc2nc1Nc1cccc(c1)COC/C=C/COCc1cc(ccc1OCCN1CCOCC1)N2` has a remaining binding of 85% (binding; 0.1 µM).
The inhibition of `NC(=O)[C@@H](O)C[C@H]1CCc2sc3ncnc(O[C@H]4CC[C@H](N5CCOCC5)CC4)c3c21` is reported as 1% (enzyme activity, inhibitor; 10 µM).
With `Nc1ncc2c(n1)-c1c([nH]c3ccc(C4=CCOCC4)cc13)CCC2` the remaining binding was 100% (binding, competition with immobilised ligand; 1 µM).
`C=CC(=O)N1Cc2nc(-c3cc(-c4cc(Cl)cnc4Cl)c(F)cc3F)n(-c3ccncn3)c2C1` gave an inhibition of 2.1% (cell-free assay; 1 µM).

Excerpt of the above:
`O=C(Cc1ccc(OCc2ccccc2)cc1)NC1(C(=O)O)CCN(C(=O)c2ccc(-c3cccc(Cl)c3)cc2)CC1` — result for “activity vs control”: 115% (enzyme activity, inhibitor; 10 µM).
